Measurements collected from several papers.
Parts stem from different laboratories: compare values within a part only.

Study 1
Target: Interferon regulatory factor 5, full length, phosphomimetic (IRF5, Homo sapiens, UniProt Q13568-2, residues 1-514, S451D/S453D/S456D/S462D)
Technique: protein-binding microarray
Form: double-stranded DNA, one strand shown
Medium: in vitro
Tested at: 940 nM top
Notes: 60-bp whole probe
Together with: salmon DNA 0.4 mg/ml
Baseline: random background probes
Direction: higher = stronger binding
`GCCTAGCACTTATATATCGGGTTTCGATTAGTGCTAGTCTTGATTCGCTTGACGCTGCTG`: “fitted relative affinity” 5.31 z-score.
Under “fitted relative affinity”, `GCCTAGCACGACGGTATCCTTATCCTCACGTGCTAGGTCTTGATTCGCTTGACGCTGCTG` is recorded as 0.418 z-score.
`GCCTAGCACTTTGGACTGGGGTTTCGGTTAGTGCTAGTCTTGATTCGCTTGACGCTGCTG`: “fitted relative affinity” 5.84 z-score.
`GCCTAGCACTTAGGTATCCGACTGCTTTAGTGCTAGGTCTTGATTCGCTTGACGCTGCTG`: “fitted relative affinity” -0.00126 z-score.

Study 2
Target: Histone acetyltransferase KAT6A, winged helix 2, GST fusion (KAT6A, Homo sapiens, UniProt Q92794, residues 85-181)
Technique: protein binding microarray
Form: double-stranded DNA, one strand shown
Medium: in vitro
Tested at: not given
Notes: 8-mer, flanks averaged, mean of 2 arrays, mostly near background
Baseline: not given
Direction: higher = stronger binding
Target sequence (chain): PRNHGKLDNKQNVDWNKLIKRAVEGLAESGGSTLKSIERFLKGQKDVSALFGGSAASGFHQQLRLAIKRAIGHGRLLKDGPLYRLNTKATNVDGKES
The E-score of `CATCATTA` is reported as 0.0947.
With `GCGTTTGA` the E-score was -0.0899.
For `CCCTAGGG`, the E-score was 0.066.
`AGTAAGCC` has an E-score of -0.116.
The E-score of `ATCCGGAC` is reported as 0.0379.

Study 3
Target: Sal-like protein 4, full length isoform B (SALL4, Homo sapiens, UniProt Q9UJQ4-2, residues 1-616)
Technique: universal PBM
Form: double-stranded DNA, one strand shown
Medium: in vitro
Tested at: not given
Notes: 8-mer, flanks averaged, mean of replicates
Direction: higher = stronger binding
`GTGCGTTA` gave an E-score of 0.2.
`CGTAGGGA` gave an E-score of -0.0467.
`CTGATCCA` has an E-score of 0.0307.
For `AAGTCTTC`, the E-score was 0.0257.
With `ACGGAACT` the E-score was 0.0301.
`ACATCGAG` has an E-score of -0.0524.

Other studies, line by line
The fold induction of `PhoQ, residues 284 288 289 292 302 303 TLSLKA` is reported as 1.06 (PhoP, residues 12 14 15 18 19 VQGLL (Escherichia coli, UniProt P23836); Sort-seq, measured: YFP reporter; E. coli; PhoQ-PhoP variant library, together with: 10 µM Mg2+; baseline: high Mg2+ state, higher = stronger signaling).

A few entries again (study 1):
`GCCTAGCACTTATATATCGGGTTTCGATTAGTGCTAGTCTTGATTCGCTTGACGCTGCTG`: “fitted relative affinity” 5.31 z-score.
